# Published values pooled from the literature.
# Each line is one published result; not all experiments were run side by side. Values joined by “and” are separate records of one study, mostly repeats; a detail may differ. ± marks the error that the study gave.
# Organism: SARS-CoV-2
Molecule,test,system,setting,how to read,measurement,result
CC(C)(C)NCc1ccc(Nc2ccnc3cc(Cl)ccc23)cc1O,viral replication,"Huh-7-ACE2, USA-WA1/2020",,,EC90,> 2.5 µM
CCCCN(CCCC)CCCNC(=O)c1ccc2nc(N3CCCCC3)sc2c1,cytopathic effect,USA_WA1/2020,"round 2, 5-point",,efficacy,46.1%
COc1cc2c(c(OC)n1)[C@]1(O)[C@H](O)[C@H](CN(C)C)[C@@H](c3ccccc3)[C@]1(c1ccc(C#N)cc1)O2,viral replication,Vero E6,concentration not given,,activity class,active
Cc1ncc(NC(=O)c2ccc(CN3CCN(C)CC3)c(C(F)(F)F)c2)cc1Nc1nccc(-c2cccnc2)n1,viral replication,"Vero E6, USA-WA1/2020",2.5 µM,,inhibition,42.4%
COc1ccc(C(CN(C)C)C2(O)CCCCC2)cc1 (stereo not drawn),viral replication,Vero E6,inactive set pIC50 4,,IC50,> 10 µM
CCC(CC)COC(=O)[C@H](C)N[P@](=O)(OC[C@H]1O[C@@](C#N)(c2ccc3c(N)ncnn23)[C@H](O)[C@@H]1O)Oc1ccccc1,"viral replication, high-content imaging screen",,cell-based,,EC50,3.12 µM
CN(C)CCC(c1ccc(Cl)cc1)c1ccccn1 (stereo not drawn),viral replication,A549 expressing ACE2,inactive set pIC50 4,,IC50,> 10 µM
Clc1cnn(CCCCN2CCN(c3ncccn3)CC2)c1,"viral replication, GFP plate reader screen",,cell-based,,EC50,2.34 µM
CC(C)(C)[C@H](NC(=O)C(F)(F)F)C(=O)N1C[C@H]2[C@@H]([C@H]1C(=O)N[C@H](C#N)C[C@@H]1CCNC1=O)C2(C)C,"viral replication, infectious virus",Vero E6,3.333 µM,,inhibition,92.8%
CCC(CC)COC(=O)[C@H](C)N[P@](=O)(OC[C@H]1O[C@@](C#N)(c2ccc3c(N)ncnn23)[C@H](O)[C@@H]1O)Oc1ccccc1,,Vero,10 µM,,viral titre,70400 IU/mL
Nc1cc(Cl)c(NC2=NCCN2)c(Cl)c1,viral replication,Huh-7,,,IC50,> 2 µM
c1ccc(C(O[C@@H]2CCCN(CCc3ccc4c(c3)OCO4)C2)c2ccccc2)cc1,"viral replication, high-content imaging screen",,cell-based,,EC50,87.1 µM
CN(C)CCNC(=O)c1ccc2c(c1)C1(CCN(CC3CC3)C1)CN2Cc1ccccc1 (stereo not drawn),cytopathic effect,USA_WA1/2020,"retest, 8-point, duplicates",,maximum response,92%
Cc1ccc(N(CC2=NCCN2)c2cccc(O)c2)cc1,viral replication,Huh-7,,,IC50,> 2 µM
Cc1nn(-c2ccc(Cl)cc2)c2c1C(c1ccc(Cl)c(Cl)c1)C(C#N)=C(N)O2 (stereo not drawn),"RT-qPCR, refers to: viral RNA",Vero,10 µM,higher means less virus,Ct value,24.8 cycles
CC(C)N1CCN(c2ccc(OCC3COC(Cn4cncn4)(c4ccc(Cl)cc4Cl)O3)cc2)CC1 (stereo not drawn),"viral replication, GFP plate reader screen",,cell-based,,EC50,16.6 µM
CCc1ccc(Sc2cc(C(=O)NCCCN3CCC(C)CC3)c3ccccc3n2)cc1,cytopathic effect,USA_WA1/2020,"retest, 8-point, duplicates",,maximum response,85.5%
O=NN(CCCl)C(=O)NCCCl,viral replication,Huh-7,,,IC50,> 2 µM
Cc1nn(-c2ccc(Cl)cc2)c2c1C(c1c(Cl)cccc1Cl)C(C#N)=C(N)O2 (stereo not drawn),viral replication,Vero,10 µM,,viral reduction,4.47%
Cc1cc(C)c2nc(-c3cnc(NCCCC4CCN(C)CC4)nc3C)[nH]c2c1,"viral replication, high-content imaging screen",,cell-based,,EC50,> 50.1 µM
Nc1ncnc2c1ncn2[C@@H]1O[C@H](CO)C[C@H]1O,,SB2,"concentration not given, 3 h, unit not given",baseline: DMSO,viral RNA level,0.209 and 0.147
CC(Nc1nc(N2CCN(CCN)CC2)nc2ccccc12)c1ccccc1 (stereo not drawn),"cytopathic effect, cell-based CPE",USA_WA1/2020,"round 2, 5-point dilution",,maximal response,56.5%
O=C(O[C@@H]1Cc2c(O)cc(O)cc2O[C@@H]1c1cc(O)c(O)c(O)c1)c1cc(O)c(O)c(O)c1,cytopathic effect,Vero E6,"12.5 µM, replicate run",,mean inhibition,0%
CC(C)n1nc(-c2ccc3oc(N)nc3c2)c2c(N)ncnc21,,,"concentration not given, Paris laboratory",,viral replication inhibition,inactive
CCNC/C=C\CNCCCCNCCCCNC/C=C\CNCC,viral replication,"Vero C1008, USA-WA1/2020","concentration not given, 24 h",,inhibition,50 to 60%
Cc1cc2c(s1)Nc1ccccc1N=C2N1CCN(C)CC1,,Vero E6,"concentration not given, NYC laboratory",,viral replication inhibition,inactive
CC(C)(C)[C@]1(O)CCN2C[C@@H]3c4ccccc4CCc4cccc(c43)[C@H]2C1,"viral replication, RT-qPCR",A549 expressing ACE2,,,IC50,> 10 µM
O=C(NCCCN1CCCCCC1)c1ccc2c(c1)sc1nc(-c3ccccc3)cn12,cytopathic effect,USA_WA1/2020,"round 2, 5-point",,efficacy,86.7%
Fc1ccc(-c2ccc(CN3CCN(c4cccc5ccoc45)CC3)[nH]2)cc1,"viral replication, inhibitor","Vero E6, USA-WA1/2020",24 h,,EC90,> 2.5 µM
heparin sodium,viral replication,Huh-7,,,IC50,> 2 µM
C[C@H](CS)C(=O)N1CCC[C@H]1C(=O)O,,Vero E6,"concentration not given, NYC laboratory",,viral replication inhibition,inactive
CC(C)=CCc1c(O)ccc(C(=O)/C=C/c2ccc(O)cc2)c1O,viral replication,Vero E6,0.7812 µM,,CPE inhibition,0%
Cc1nn(-c2ccc(Cl)cc2)c2c1C(c1ccc(Cl)cc1)C(C#N)=C(N)O2 (stereo not drawn),,Vero C1008,10 µM,baseline: positive control,viral titre log reduction,0.512 log10
COc1ccccc1-c1cccc(CN2CCCC(C(=O)NCc3ccc(F)cc3)C2)c1 (stereo not drawn),cytopathic effect,USA_WA1/2020,"round 1, 5-point",,maximum response,62.1%
CCN(CC)CCOC(=O)C(O)(c1ccccc1)c1ccccc1,viral replication,Vero E6,inactive set pIC50 4,,IC50,> 10 µM
Cc1nn(-c2ccc(Cl)cc2)c2c1C(c1ccc(-c3ccccc3)cc1)C(C#N)=C(N)O2 (stereo not drawn),viral replication,Vero,1 µM,,viral reduction,0.831%
CCCN1CCC=C(c2cc(-c3ccc(C)cc3)no2)C1.O=C(O)C(=O)O,,,"concentration not given, Paris laboratory",,viral replication inhibition,inactive
CCN1CCCC1CNC(=O)c1cc(S(=O)(=O)CC)c(N)cc1OC (stereo not drawn),"viral replication, RT-qPCR",A549 expressing ACE2,,,IC50,> 10 µM
Cc1nn(-c2ccc(Cl)cc2)c2c1C(c1ccc(F)cc1F)C(C#N)=C(N)O2 (stereo not drawn),,Vero C1008,1 µM,baseline: positive control,viral titre log reduction,0.0033 log10
COc1ccc(C[C@@H]2c3cc(Oc4cc(C[C@@H]5c6cc(O)c(OC)cc6CCN5C)ccc4O)c(OC)cc3CCN2C)cc1,viral replication,Vero E6,25 µM,baseline: mean of replicates,CPE inhibition,0%
Cn1cnc(Cn2c(=O)[nH]/c(=N\c3cc4cn(C)nc4cc3Cl)n(Cc3cc(F)c(F)cc3F)c2=O)n1,viral replication,Delta strain,72 h,,EC90,0.117 ± 0.026 µM
C#C[C@]1(O)CC[C@H]2[C@@H]3CCC4=CCCC[C@@H]4[C@H]3CC[C@@]21C,"viral replication, high-content imaging screen",,cell-based,,EC50,> 50.1 µM
O=C(O)/C(Cc1ccccc1[N+](=O)[O-])=N\Nc1nc(-c2ccc(Cl)c(Cl)c2)cs1,,,"concentration not given, Paris laboratory",,viral replication inhibition,inactive
COc1cc(C2C(C#N)=C(N)Oc3c2c(C)nn3-c2ccc(Cl)cc2)cc(OC)c1OC (stereo not drawn),viral replication,Vero,1 µM,,viral reduction,2.41%
CC(C)(C)[C@H](NC(=O)C(F)(F)F)C(=O)N1C[C@H]2[C@@H]([C@H]1C(=O)N[C@H](C#N)C[C@@H]1CCNC1=O)C2(C)C,"viral replication, qRT-PCR of viral RNA","Calu-3, Washington",,,EC90,8.8 ± 2.8 µM
O=C1[C@H](CC[C@H](O)c2ccc(F)cc2)[C@@H](c2ccc(O)cc2)N1c1ccc(F)cc1,viral replication,Huh-7,,,IC50,> 2 µM
Clc1ccc(-c2nn(Cc3ccccc3)c3c2CCNCC3)cc1,"viral replication, GFP plate reader screen",BetaCov/Belgium/GHB-03021/2020,cell-based,,EC50,> 25.1 µM and > 20 µM
CCN(CC)C(=O)C1(c2ccccc2)CC1CN (stereo not drawn),"viral replication, RT-qPCR",A549 expressing ACE2,,,IC50,> 10 µM
CCC(CC)COC(=O)[C@H](C)N[P@](=O)(OC[C@H]1O[C@@](C#N)(c2ccc3c(N)ncnn23)[C@H](O)[C@@H]1O)Oc1ccccc1,replicon RdRp activity,HeLa,10 µM,,remaining activity,0.472%
O=C(/C=C/c1ccc(O)c(O)c1/C=C/c1ccc(O)c(O)c1)O[C@H](Cc1ccc(O)c(O)c1)C(=O)O,cytopathic effect,Vero E6,"12.5 µM, replicate run",,mean inhibition,0%
Cc1ccc2nc(Cl)c3cc(C(=O)NCCCN4CCC(C)CC4)sc3c2c1,"cytopathic effect, cell-based CPE",USA_WA1/2020,,,AC50,11.2 µM
CCCCc1oc2ccc(NS(C)(=O)=O)cc2c1C(=O)c1ccc(OCCCN(CCCC)CCCC)cc1,"viral replication, GFP plate reader screen",,cell-based,,EC50,3.02 µM
COc1ccc(N2CCN(CCCNC(=O)c3cc(Nc4ccc(OC)cc4OC)nc4ccccc34)CC2)cc1,cytopathic effect,USA_WA1/2020,"retest, 8-point, duplicates",,efficacy,46.7%
O=C(O)c1ccc(N2C(=O)/C(=C/c3ccc(-c4ccc([N+](=O)[O-])cc4)o3)C=C2c2ccccc2)cc1,viral replication,Huh-7,,,IC50,> 2 µM

# A few entries again:
Molecule,test,system,setting,how to read,measurement,result
CCCN1CCC=C(c2cc(-c3ccc(C)cc3)no2)C1.O=C(O)C(=O)O,,,"concentration not given, Paris laboratory",,viral replication inhibition,inactive
Clc1cnn(CCCCN2CCN(c3ncccn3)CC2)c1,"viral replication, GFP plate reader screen",,cell-based,,EC50,2.34 µM
CC(C)(C)[C@]1(O)CCN2C[C@@H]3c4ccccc4CCc4cccc(c43)[C@H]2C1,"viral replication, RT-qPCR",A549 expressing ACE2,,,IC50,> 10 µM
CC(C)(C)[C@H](NC(=O)C(F)(F)F)C(=O)N1C[C@H]2[C@@H]([C@H]1C(=O)N[C@H](C#N)C[C@@H]1CCNC1=O)C2(C)C,"viral replication, infectious virus",Vero E6,3.333 µM,,inhibition,92.8%
CC(C)=CCc1c(O)ccc(C(=O)/C=C/c2ccc(O)cc2)c1O,viral replication,Vero E6,0.7812 µM,,CPE inhibition,0%
Nc1cc(Cl)c(NC2=NCCN2)c(Cl)c1,viral replication,Huh-7,,,IC50,> 2 µM
O=C(O)c1ccc(N2C(=O)/C(=C/c3ccc(-c4ccc([N+](=O)[O-])cc4)o3)C=C2c2ccccc2)cc1,viral replication,Huh-7,,,IC50,> 2 µM
COc1ccc(C[C@@H]2c3cc(Oc4cc(C[C@@H]5c6cc(O)c(OC)cc6CCN5C)ccc4O)c(OC)cc3CCN2C)cc1,viral replication,Vero E6,25 µM,baseline: mean of replicates,CPE inhibition,0%
